Results pooled from the literature.
± marks the error that the study gave.
U2AF2: U2AF2 148-342 (Homo sapiens, UniProt P26368)
UniProt P26368, sequence (whole entry, looked up): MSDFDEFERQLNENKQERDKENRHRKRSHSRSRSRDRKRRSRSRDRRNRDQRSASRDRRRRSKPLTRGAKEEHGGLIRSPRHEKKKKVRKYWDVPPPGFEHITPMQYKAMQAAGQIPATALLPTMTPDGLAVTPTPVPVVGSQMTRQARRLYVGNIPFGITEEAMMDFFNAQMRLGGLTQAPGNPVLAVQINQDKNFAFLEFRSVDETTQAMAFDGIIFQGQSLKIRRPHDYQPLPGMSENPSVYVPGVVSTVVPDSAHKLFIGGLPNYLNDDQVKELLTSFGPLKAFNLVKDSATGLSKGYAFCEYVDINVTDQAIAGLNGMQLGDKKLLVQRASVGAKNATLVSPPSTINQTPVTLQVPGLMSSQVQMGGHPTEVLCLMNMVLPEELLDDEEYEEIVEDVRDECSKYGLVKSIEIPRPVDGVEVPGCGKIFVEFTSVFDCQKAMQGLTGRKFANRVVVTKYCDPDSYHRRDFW
EIF4E2: EIF4E2 (Homo sapiens, UniProt O60573)
UniProt O60573, sequence (whole entry, looked up): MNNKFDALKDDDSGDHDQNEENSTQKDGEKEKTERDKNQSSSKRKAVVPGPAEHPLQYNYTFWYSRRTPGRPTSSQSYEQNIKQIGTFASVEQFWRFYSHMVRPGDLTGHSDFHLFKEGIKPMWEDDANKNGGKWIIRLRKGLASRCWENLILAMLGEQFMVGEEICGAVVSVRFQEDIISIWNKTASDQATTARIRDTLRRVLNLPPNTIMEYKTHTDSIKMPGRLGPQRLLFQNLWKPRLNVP
B1: DLL4 27-400 (Homo sapiens, UniProt Q9NR61); chain SGVFQLQLQEFINERGVLASGRPCEPGCRTFFRVCLKHFQAVVSPGPCTFGTVSTPVLGTNSFAVRDDSSGGGRNPLQLPFNFTWPGTFSLIIEAWHAPGDDLRPEALPPDALISKIAIQGSLAVGQNWLLDEQTSTLTRLRYSYRVICSDNYYGDNCSRLCKKRNDHFGHYVCQPDGNLSCLPGWTGEYCQQPICLSGCHEQNGYCSKPAECLCRPGWQGRLCNECIPHNGCRHGTCSTPWQCTCDEGWGGLFCDQDLNYCTHHSPCKNGATCSNSGQRSYTCTCRPGYTGVDCELELSECDSNPCRNGGSCKDQEDGYHCLCPPGYYGLHCEHSTLSCADSPCFNGGSCRERNQGANYACECPPNFTGSNCE
B2: human RAB1C; sequence looked up; chain MNPGYDCLFKLLLIGDSGVGKSCLLLRFADDPYTESYISTIGVDFKIQTIELDGKTIKLQIWDTAGQERFWTITSSYYRGAHGFLVVYDVTDQESYANVKQWLQEIDRHASENVNKLLVGNKSDLTTKKVVDNTTAKEFADSLGIPFLETSAKNATNVEQAFMTMAAEIKKQMGPGAASGGERPNLKIDSTPVKPAGGGCC
UniProt P84090, sequence (whole entry, unmodified, looked up): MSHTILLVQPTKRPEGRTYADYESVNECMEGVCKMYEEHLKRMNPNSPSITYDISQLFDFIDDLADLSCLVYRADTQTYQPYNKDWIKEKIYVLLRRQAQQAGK
UniProt Q9QUK6, sequence (whole entry, looked up): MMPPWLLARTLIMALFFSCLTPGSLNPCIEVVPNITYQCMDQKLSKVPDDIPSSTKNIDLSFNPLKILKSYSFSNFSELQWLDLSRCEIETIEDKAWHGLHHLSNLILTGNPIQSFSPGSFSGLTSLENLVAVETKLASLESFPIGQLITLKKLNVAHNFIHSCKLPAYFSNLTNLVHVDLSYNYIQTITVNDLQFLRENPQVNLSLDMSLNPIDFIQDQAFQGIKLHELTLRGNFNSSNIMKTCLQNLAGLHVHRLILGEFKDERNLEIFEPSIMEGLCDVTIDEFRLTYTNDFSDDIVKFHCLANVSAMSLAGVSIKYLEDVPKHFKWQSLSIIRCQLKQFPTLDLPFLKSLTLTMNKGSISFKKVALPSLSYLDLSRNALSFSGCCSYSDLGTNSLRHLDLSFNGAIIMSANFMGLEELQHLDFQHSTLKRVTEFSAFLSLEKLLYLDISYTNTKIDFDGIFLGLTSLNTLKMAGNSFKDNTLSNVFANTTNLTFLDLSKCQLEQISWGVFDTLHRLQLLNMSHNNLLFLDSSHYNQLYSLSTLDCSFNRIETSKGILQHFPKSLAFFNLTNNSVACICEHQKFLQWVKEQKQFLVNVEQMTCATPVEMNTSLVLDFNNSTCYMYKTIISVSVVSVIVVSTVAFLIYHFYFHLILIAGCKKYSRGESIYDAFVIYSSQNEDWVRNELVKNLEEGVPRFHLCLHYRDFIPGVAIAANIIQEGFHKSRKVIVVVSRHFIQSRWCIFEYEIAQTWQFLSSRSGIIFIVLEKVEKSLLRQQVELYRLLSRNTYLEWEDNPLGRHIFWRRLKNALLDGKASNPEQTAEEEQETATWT
UniProt P11362, sequence (whole entry, looked up): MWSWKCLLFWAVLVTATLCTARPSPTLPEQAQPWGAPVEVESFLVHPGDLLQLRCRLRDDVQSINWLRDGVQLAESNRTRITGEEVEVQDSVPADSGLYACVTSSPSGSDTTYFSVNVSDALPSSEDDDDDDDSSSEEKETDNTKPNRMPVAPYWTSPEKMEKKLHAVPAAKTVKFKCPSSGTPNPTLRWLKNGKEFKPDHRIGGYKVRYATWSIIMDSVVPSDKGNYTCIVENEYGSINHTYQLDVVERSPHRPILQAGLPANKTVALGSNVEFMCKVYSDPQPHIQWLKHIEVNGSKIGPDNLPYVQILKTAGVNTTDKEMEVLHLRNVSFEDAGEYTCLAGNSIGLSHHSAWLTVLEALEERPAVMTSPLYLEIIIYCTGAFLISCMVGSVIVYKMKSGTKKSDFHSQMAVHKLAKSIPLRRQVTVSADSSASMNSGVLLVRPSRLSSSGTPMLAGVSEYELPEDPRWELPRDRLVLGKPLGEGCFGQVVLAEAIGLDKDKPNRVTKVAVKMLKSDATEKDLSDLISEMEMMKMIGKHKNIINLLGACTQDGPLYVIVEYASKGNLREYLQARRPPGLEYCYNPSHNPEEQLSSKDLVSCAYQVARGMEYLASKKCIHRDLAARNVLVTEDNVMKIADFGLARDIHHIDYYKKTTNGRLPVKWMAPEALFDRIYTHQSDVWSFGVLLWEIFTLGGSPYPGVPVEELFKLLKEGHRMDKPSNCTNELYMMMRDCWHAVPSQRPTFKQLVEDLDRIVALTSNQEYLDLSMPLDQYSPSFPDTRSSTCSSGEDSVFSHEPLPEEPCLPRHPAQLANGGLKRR
UniProt P46531, sequence (whole entry, looked up): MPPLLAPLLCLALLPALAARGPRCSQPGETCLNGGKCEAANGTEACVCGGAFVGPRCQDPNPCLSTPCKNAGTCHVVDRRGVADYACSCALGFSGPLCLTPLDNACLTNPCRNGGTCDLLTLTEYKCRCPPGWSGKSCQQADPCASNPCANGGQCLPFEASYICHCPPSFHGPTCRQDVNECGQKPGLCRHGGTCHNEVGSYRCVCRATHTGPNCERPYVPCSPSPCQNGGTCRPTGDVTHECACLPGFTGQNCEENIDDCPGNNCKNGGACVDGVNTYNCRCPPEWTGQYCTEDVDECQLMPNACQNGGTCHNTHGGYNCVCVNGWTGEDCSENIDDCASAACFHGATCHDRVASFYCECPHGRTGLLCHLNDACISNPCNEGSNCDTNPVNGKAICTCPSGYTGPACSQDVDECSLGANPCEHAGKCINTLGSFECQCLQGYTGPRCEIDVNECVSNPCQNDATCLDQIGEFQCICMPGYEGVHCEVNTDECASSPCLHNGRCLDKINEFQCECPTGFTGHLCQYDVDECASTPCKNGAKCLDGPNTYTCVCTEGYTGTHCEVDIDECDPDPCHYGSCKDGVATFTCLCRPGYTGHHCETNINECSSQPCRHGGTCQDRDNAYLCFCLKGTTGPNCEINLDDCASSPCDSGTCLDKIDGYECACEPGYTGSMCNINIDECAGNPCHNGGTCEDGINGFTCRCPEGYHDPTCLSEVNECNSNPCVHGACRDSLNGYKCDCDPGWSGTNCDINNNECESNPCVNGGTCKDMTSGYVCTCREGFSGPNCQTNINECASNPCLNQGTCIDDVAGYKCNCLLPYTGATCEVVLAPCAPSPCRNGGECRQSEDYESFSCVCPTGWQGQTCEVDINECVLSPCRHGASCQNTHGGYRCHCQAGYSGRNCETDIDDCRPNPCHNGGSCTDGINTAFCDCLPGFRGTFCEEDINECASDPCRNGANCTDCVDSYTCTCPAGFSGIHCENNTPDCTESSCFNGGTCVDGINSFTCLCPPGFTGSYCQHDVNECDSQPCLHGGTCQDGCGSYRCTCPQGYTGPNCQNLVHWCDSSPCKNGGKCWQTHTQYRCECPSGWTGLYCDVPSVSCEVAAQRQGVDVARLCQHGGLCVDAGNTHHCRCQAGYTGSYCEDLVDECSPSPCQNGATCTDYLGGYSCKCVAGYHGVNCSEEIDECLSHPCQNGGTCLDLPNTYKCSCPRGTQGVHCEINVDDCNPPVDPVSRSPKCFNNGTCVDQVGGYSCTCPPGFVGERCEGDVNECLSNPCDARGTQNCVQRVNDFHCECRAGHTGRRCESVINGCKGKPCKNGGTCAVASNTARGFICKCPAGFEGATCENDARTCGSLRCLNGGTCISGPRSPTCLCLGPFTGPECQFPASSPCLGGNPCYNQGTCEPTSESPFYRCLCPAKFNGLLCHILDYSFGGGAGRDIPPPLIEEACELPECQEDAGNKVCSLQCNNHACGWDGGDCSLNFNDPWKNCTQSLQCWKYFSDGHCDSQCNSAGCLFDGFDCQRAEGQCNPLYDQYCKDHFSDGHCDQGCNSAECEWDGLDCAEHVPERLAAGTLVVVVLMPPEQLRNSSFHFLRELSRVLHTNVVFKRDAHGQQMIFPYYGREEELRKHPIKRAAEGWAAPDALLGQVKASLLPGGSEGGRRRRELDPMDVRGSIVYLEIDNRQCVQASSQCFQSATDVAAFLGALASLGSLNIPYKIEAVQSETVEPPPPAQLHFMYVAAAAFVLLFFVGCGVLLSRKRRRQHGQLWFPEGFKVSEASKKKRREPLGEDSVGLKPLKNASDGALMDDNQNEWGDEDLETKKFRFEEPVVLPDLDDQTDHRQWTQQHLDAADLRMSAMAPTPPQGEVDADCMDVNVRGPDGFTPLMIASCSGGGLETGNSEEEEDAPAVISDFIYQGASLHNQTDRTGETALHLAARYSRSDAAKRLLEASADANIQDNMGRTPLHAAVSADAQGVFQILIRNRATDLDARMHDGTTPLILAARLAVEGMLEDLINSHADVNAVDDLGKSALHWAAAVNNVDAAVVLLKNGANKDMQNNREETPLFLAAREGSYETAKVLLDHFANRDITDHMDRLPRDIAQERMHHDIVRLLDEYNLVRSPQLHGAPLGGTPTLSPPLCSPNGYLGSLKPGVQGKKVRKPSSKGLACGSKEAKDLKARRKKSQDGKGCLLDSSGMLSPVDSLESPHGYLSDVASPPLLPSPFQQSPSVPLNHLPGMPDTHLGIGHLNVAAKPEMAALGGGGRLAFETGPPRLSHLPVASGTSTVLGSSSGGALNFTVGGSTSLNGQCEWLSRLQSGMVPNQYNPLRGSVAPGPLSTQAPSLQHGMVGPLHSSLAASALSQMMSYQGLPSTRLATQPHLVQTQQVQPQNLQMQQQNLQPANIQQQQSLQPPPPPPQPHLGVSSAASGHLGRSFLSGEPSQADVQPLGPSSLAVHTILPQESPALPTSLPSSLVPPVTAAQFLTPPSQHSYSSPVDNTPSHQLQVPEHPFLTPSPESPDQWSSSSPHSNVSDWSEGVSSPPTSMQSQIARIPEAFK

CUGUUCAUU (ssRNA)
Kd (U2AF2; sequencing of bound RNA; RNA; motif only): 9.98 µM

ARTKQTARKSTG (histone H3 peptide 1-12; K4me1)
molecule per partner (Ehd3 417-547 H441A (Oryza sativa, UniProt Q6ZJM9); ITC; peptide): 0.72

FGF1
lowest maximal concentration (Fibroblast growth factor receptor 1 (FGFR1, Homo sapiens, UniProt P11362); receptor phosphorylation, immunoblotting; Flp-In-293 expressing FGFR1; 10 min): 16 nM

B1 (DLL4 27-400)
adsorbed ligand amount (NOTCH1 full length, on cells (UniProt P46531); Notch1 reporter activation EC50; CHO-K1; 24 h): 2.3 ng mm^-2

KYKLADYRYGREEMLALFLK (GIGYF2(35-54) peptide; sequence looked up)
ΔH (EIF4E2; ITC; peptide; pH 7.0, 20 °C, GB1-stabilized peptide titration): -92 ± 8.37 kJ/mol

human ME2 K81R
activation fold (enzyme activity, activator, NADH absorbance; recombinant enzyme; range over 0 to 5 mM, pH 7.4; relative to: wild type): 1.1

B2 (human RAB1C)
log2 fold change (CYB5R4 knockout human cells; PP4 interaction, 3xFLAG-PP4C IP-MS; concentration not given; relative to: CYB5R4 KO over parental): -2.04

PRTARHAPAVRKFSPDLKLLKDVKISVSFTE (DGCR8(96-126), SUMO-tagged)
Kd (Enhancer of rudimentary homolog (Homo sapiens, UniProt P84090, F60A); binding, isothermal titration calorimetry; peptide; 293 K, with: DGCR8 peptide, SUMO-tagged): 34.5 ± 9.96 µM

KYKLADYRYGREEMLALYVK (GIGYF1(33-52) peptide; sequence looked up)
ΔG (EIF4E2; ITC; peptide; pH 7.0, 20 °C, GB1-stabilized peptide titration): -36.4 kJ/mol

Pentraxin 3
Kd (Toll-like receptor 4 (Mus musculus, UniProt Q9QUK6); fluorescence titration; pH 7.4, 25 °C, with: BODIPY FL-labelled alarmin): 0.393 µM

FGA (Homo sapiens, UniProt P02671)
cross-linked residues (A4GALT (Homo sapiens, UniProt Q9NPC4); cross-linking MS; with: DSSO): K100 to K3

GUUUCAUUC (ssRNA)
Kd (U2AF2; sequencing of bound RNA; RNA; motif only): 3.73 µM

PRTARHAPAVRKASPDLKLLKDVKISVSFTE (DGCR8 peptide F108A)
Kd (Enhancer of rudimentary homolog (Homo sapiens, UniProt P84090); ITC; peptide; 293 K, wild type, with: DGCR8 peptide): 66.3 ± 14.8 µM

Excerpt of the above:
B2 (human RAB1C)
log2 fold change (CYB5R4 knockout human cells; PP4 interaction, 3xFLAG-PP4C IP-MS; concentration not given; relative to: CYB5R4 KO over parental): -2.04
